Experimental data of several laboratories.
Each line is one published result; not all experiments were run side by side. “And” joins repeats or separate records; there may be more than shown.

SMILES | test | system | conditions | endpoint | value
C[C@]1(CO)Cc2ncn(-c3ccc(C#N)c(Cl)c3)c2C(=O)O1 | – | human, plasma | oral, 10 mg single dose, fasted | AUC(0-inf) adjusted geometric mean | 2330 nmol·h/L
CC[C@H](C)[C@H](NC(=O)[C@H](Cc1ccccc1)NC(=O)[C@H](CCC(=O)O)NC(=O)[C@H](CCCCNC(=O)COCCOCCNC(=O)COCCOCCNC(=O)CC[C@H](NC(=O)CCCCCCCCCCCCCCCCC(=O)O)C(=O)O)NC(=O)[C@H](C)NC(=O)[C@H](C)NC(=O)[C@H](CCC(N)=O)NC(=O)CNC(=O)[C@H](CCC(=O)O)NC(=O)[C@H](CC(C)C)NC(=O)[C@H](Cc1ccc(O)cc1)NC(=O)[C@H](CO)NC(=O)[C@H](CO)NC(=O)[C@@H](NC(=O)[C@H](CC(=O)O)NC(=O)[C@H](CO)NC(=O)[C@@H](NC(=O)[C@H](Cc1ccccc1)NC(=O)[C@@H](NC(=O)CNC(=O)[C@H](CCC(=O)O)NC(=O)C(C)(C)NC(=O)[C@@H](N)Cc1cnc[nH]1)[C@@H](C)O)[C@@H](C)O)C(C)C)C(=O)N[C@@H](C)C(=O)N[C@@H](Cc1c[nH]c2ccccc12)C(=O)N[C@@H](CC(C)C)C(=O)N[C@H](C(=O)N[C@@H](CCCNC(=N)N)C(=O)NCC(=O)N[C@@H](CCCNC(=N)N)C(=O)NCC(=O)O)C(C)C | – | healthy men and women | oral, 14 mg once daily, with SNAC, geometric mean | AUC(0-24h) at steady state | 554 nmol·h/L
Cc1cc(C)c(CNC(=O)c2cc(Cl)c3c(c2C)O[C@@](C)([C@H]2CC[C@H](N(C)C)CC2)O3)c(=O)[nH]1 | – | human, relapsed/refractory NHL | concentration not given, all TEAEs, grade 5 | Hyperglycaemia incidence | 0%
CN1CC[C@@H](c2c(O)cc(O)c3c(=O)cc(-c4ccc(C(F)(F)F)cc4Cl)oc23)[C@@H]1CO | measured: Anemia | B-cell malignancies | oral, 200 mg, intermittent dosing | patients with adverse event | 100%
CC(=O)c1c(C)c2cnc(Nc3ccc(C4CCN(CCS(C)(=O)=O)CC4)cn3)nc2n(C2CCCC2)c1=O | – | human, plasma | oral, 75 mg twice daily, day 1, single dose, together with: letrozole | Vd | 1050 L
C=CCNc1c(O)cc2c(O)c1C[C@@H](C)C[C@H](OC)[C@H](O)[C@@H](C)/C=C(\C)[C@H](OC(N)=O)[C@@H](OC)/C=C\C=C(/C)C(=O)N2 | – | unresectable or metastatic sarcoma | intravenous, 300 mg/m^2, grade 3-4 lab change | patients with lipase increase | 33%
CCc1ccc(CC/C=C/c2ccc3c(c2)C(=O)CC3)cc1 | – | Sprague-Dawley rat, male | oral, 120 mg/kg/day, 14 days | Neutrophil percentage | 14.7%
NC(=O)[C@H]1CCN(c2ncnc(N)c2F)C[C@@H]1N1CCC[C@@H](Nc2cc(Cl)cc(C(F)(F)F)c2)C1=O | – | B-cell malignancy patients | oral, 20.5 mg twice daily, dose | grade ≥3 hypocalcaemia | 0%
C=CC(=O)N1CC[C@H](n2nc(C#Cc3cc(OC)cc(OC)c3)c3c(N)ncnc32)C1 | – | human patients | oral, dose not given, QD regimen, adverse drug reaction, together with: any phosphate binder | decreased appetite, any grade | 47.5%
O=S(=O)(Nc1ccccc1)c1ccc(NC(=S)Nc2ccccc2)cc1 | measured: MO% | female mouse, blood | oral, 80 mg/kg daily, 14 days | blood cell fraction | 4.86%
CN1CCN(S(=O)(=O)c2cc([N+](=O)[O-])ccc2N(CCOS(C)(=O)=O)CCOS(C)(=O)=O)CC1 | – | NOD/SCID mouse, naive, blood | intraperitoneal, 12.5 mg/kg, week 4 | hemoglobin | 142 g/L and 162 g/L and 158 g/L
COc1cc(N2CCC(N3CCN(C)CC3)CC2)ccc1Nc1ncnc(Nc2ccccc2S(=O)(=O)C(C)C)n1 | measured: Anemia | Japanese patients with solid tumours | oral, dose not given, all grades | treatment-emergent adverse events | 4 number (percent)
CO[C@H]1C[C@@H]2CC[C@@H](C)[C@@](O)(O2)C(=O)C(=O)N2CCCC[C@H]2C(=O)O[C@H]([C@H](C)C[C@@H]2CC[C@@H](OC(=O)NCCOCCOCCOCCOCCOCCOCCOCCOCCC(=O)N3CCc4cc(Cn5nc(-c6ccc7oc(N)nc7c6)c6c(N)ncnc65)ccc4C3)[C@H](OC)C2)C[C@@H](O)[C@H](C)/C=C(\C)[C@@H](O)[C@@H](OC)C(=O)[C@H](C)C[C@H](C)/C=C/C=C/C=C/1C | – | advanced solid tumour patients | intravenous, 1.6 mg/3 mg weekly, grade ≥3 | incidence of TRAE | 40%
CC(C)C[C@H](NC(=O)[C@H](CCCCN)NC(=O)OCC1c2ccccc2-c2ccccc21)C(=O)N[C@H](C(=O)N[C@@H](Cc1ccccc1)C(=O)N[C@@H](Cc1ccccc1)C(=O)N[C@@H](CCCCN)C(=O)NCC(=O)N[C@@H](Cc1ccccc1)C(=O)N[C@@H](C)C(=O)N[C@@H](Cc1c[nH]c2ccccc12)C(=O)N[C@@H](CC(N)=O)C(=O)N[C@H](C(=O)N[C@H]1CSSC[C@@H](C(=O)N[C@@H](Cc2c[nH]cn2)C(=O)N[C@@H](CCCNC(=N)N)C(=O)N[C@@H](CCCNC(=N)N)C(=O)N[C@@H](C)C(=O)N[C@@H](CC(N)=O)C(N)=O)NC(=O)[C@H](C(C)C)NC(=O)[C@H](CCCNC(=N)N)NC(=O)[C@H](C(C)C)NC(=O)CNC(=O)[C@H](CC(N)=O)NC(=O)[C@H](CCCNC(=N)N)NC(=O)[C@H](Cc2ccc(O)cc2)NC(=O)[C@H](C(C)C)NC1=O)C(C)C)C(C)C | circular dichroism, measured: Parallel | PBS | 80 µM, pH 7.4, together with: LTA 1 µM | secondary structure content | 3.4%

Repeated from above:
SMILES | test | system | conditions | endpoint | value
C[C@]1(CO)Cc2ncn(-c3ccc(C#N)c(Cl)c3)c2C(=O)O1 | – | human, plasma | oral, 10 mg single dose, fasted | AUC(0-inf) adjusted geometric mean | 2330 nmol·h/L
CC(C)C[C@H](NC(=O)[C@H](CCCCN)NC(=O)OCC1c2ccccc2-c2ccccc21)C(=O)N[C@H](C(=O)N[C@@H](Cc1ccccc1)C(=O)N[C@@H](Cc1ccccc1)C(=O)N[C@@H](CCCCN)C(=O)NCC(=O)N[C@@H](Cc1ccccc1)C(=O)N[C@@H](C)C(=O)N[C@@H](Cc1c[nH]c2ccccc12)C(=O)N[C@@H](CC(N)=O)C(=O)N[C@H](C(=O)N[C@H]1CSSC[C@@H](C(=O)N[C@@H](Cc2c[nH]cn2)C(=O)N[C@@H](CCCNC(=N)N)C(=O)N[C@@H](CCCNC(=N)N)C(=O)N[C@@H](C)C(=O)N[C@@H](CC(N)=O)C(N)=O)NC(=O)[C@H](C(C)C)NC(=O)[C@H](CCCNC(=N)N)NC(=O)[C@H](C(C)C)NC(=O)CNC(=O)[C@H](CC(N)=O)NC(=O)[C@H](CCCNC(=N)N)NC(=O)[C@H](Cc2ccc(O)cc2)NC(=O)[C@H](C(C)C)NC1=O)C(C)C)C(C)C | circular dichroism, measured: Parallel | PBS | 80 µM, pH 7.4, together with: LTA 1 µM | secondary structure content | 3.4%
